Measured values from different studies.
Each numbered part is a random draw from the data of one study; scales do not carry over between parts. Substitutions count along the parent as printed.

Series 1 — method: protein-binding microarray; form: double-stranded DNA, one strand shown; matrix: in vitro; concentration: 250 nM; setting: 60-bp whole probe; added: salmon DNA 0.4 mg/ml; relative to: random background probes; direction: higher = stronger binding; measurement: log fluorescence; shared flanks, not repeated: GCCTAGCAC … GTCTTGATTCGCTTGACGCTGCTG
Target: Interferon regulatory factor 5, full length, phosphomimetic (IRF5, Homo sapiens, UniProt Q13568-2, residues 1-514, K96S/S451D/S453D/S456D/S462D)
GACGGTATCGACCTTCGGGACGTGCTA: 1.4 z-score
TTAGATTTCAGTATCGCTTAGTGCTAG: 5.05 z-score
TTAGGACCGGGGTTTCGGTTAGTGCTA: 6.4 z-score
TCACTTCTAATATTCATACTGTGCTAG: 0.952 z-score
TTAGATTTCAGTTTCTATTAGTGCTAG: 5.97 z-score
TTAGATATCGGGTACCGATTAGTGCTA: 2.57 z-score
TCAATTTTGTGTCTGGGACTGTGCTAG: 0.149 z-score
TCTAATTAGAATTTAAAACAGTGCTAG: 0.482 z-score
GACGTTTTCCTTATCCTGACGTGCTAG: 0.802 z-score
TGAGGTTTCCTTTTCCTTTAGTGCTAG: 1.16 z-score
GACGGTATCCTTATGCTGACGTGCTAG: -0.0313 z-score
TCAACACTAATTTTCAAACTGTGCTAG: 0.686 z-score
TTATGTTTCGGTTCCGGTTAGTGCTAG: 10.4 z-score

Series 2 — target: CCND2, cyclin fold, Cln2 fusion (human); method: yeast growth competition, sequencing; matrix: yeast; setting: weak parent motif; relative to: not given; direction: higher = stronger binding; measurement: normalised enrichment score
Parent: MASTL docking peptide (human); PMIAKNLMCELDE
L7G: -0.156
C9A: 0.0299
I3R: -0.0852
L11H: 0.253
K5L: 0.383
I3W: 0.186
I3N: 0.174
M2V: -0.0971
E10A: 0.0179

Series 3 — method: protein binding microarray; form: double-stranded DNA, one strand shown; matrix: in vitro; concentration: not given; relative to: not given; direction: higher = stronger binding; measurement: E-score
Target: Histone acetyltransferase KAT6A, winged helix 2, GST fusion (KAT6A, Homo sapiens, UniProt Q92794, residues 85-181)
Setting: 8-mer, flanks averaged, mean of 2 arrays, mostly near background
Residues (chain): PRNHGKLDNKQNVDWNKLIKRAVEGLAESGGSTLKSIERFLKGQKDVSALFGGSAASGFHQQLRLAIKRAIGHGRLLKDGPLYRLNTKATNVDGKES
AAATTGGT: 0.0239
GGTATGAC: -0.0919
ACGTCTAG: -0.0118
CGCCAGGC: 0.154
AAGCGGAA: 0.08
CGATTGCC: 0.06
AGACACCT: -0.16
CCAACTAG: 0.0571
ACTTATCA: -0.0906
CTAACTTA: -0.00335
TCATTACA: -0.00254
CGAGTGCG: 0.12

Further values, each from its own experiment
PhoQ, residues 284 288 289 292 302 303 TNSAEL
fold induction (PhoP, residues 12 14 15 18 19 VQALL (Escherichia coli, UniProt P23836); Sort-seq, item: YFP reporter; E. coli; PhoQ-PhoP variant library, added: 10 µM Mg2+; relative to: high Mg2+ state, higher = stronger signaling): 16.2

Repeated from above (series 1):
TCACTTCTAATATTCATACTGTGCTAG: 0.952 z-score
TTAGATTTCAGTTTCTATTAGTGCTAG: 5.97 z-score
TTAGATATCGGGTACCGATTAGTGCTA: 2.57 z-score
TCAATTTTGTGTCTGGGACTGTGCTAG: 0.149 z-score
TCTAATTAGAATTTAAAACAGTGCTAG: 0.482 z-score
